# Measured values of several laboratories.
# Several values in a cell are separate wells, animals, samples, runs or records. ± gives the spread as reported.
# Cell line: Caco-2
Compound,assay,test system,setting,scale,endpoint,value
Cc1ncc([N+](=O)[O-])n1CCOCc1nnc(SCC(=O)c2ccc(Br)cc2)o1,"cell growth or viability, MTT",,"6 µM, 48 h",,viability,97.5%
CCC(CC)OC1C=C(C(=O)OC(OC(=O)C(N)C(C)C)C(C)C)CC(NC(=N)N)C1NC(C)=O (mixture of isomers),,intracellular,"concentration not given, time not given, after apical transport",,hydrolysis to parent drug,49 ± 12%
COC(=O)NC(C(=O)NN(Cc1ccc(Br)cc1)CC(O)(Cc1ccccc1)C(=O)Nc1cccc(O)c1C)C(C)(C)C (centres unmarked),,,pH 7.4,relative to: B-to-A over A-to-B,efflux ratio,1
CCCCn1cc(C(=O)O)c(=O)c2cc(F)c(N)c([N+](=O)[O-])c21,"cell growth, SRB",,72 h,,IC50,205 ± 25.9 µg/mL
C[n+]1cc2cc3cc(ccc31)NC(=O)CCCCC(=O)Nc1ccc3c(c1)cc(c[n+]3C)C(=O)Nc1ccc3[nH]cc(c3c1)CCNC2=O,,,"pH 6.5, intrinsic permeability, with: transporter inhibitor cocktail",,Papp A-B,1.4 ×10⁻⁶ cm/s
CCCCC[C@@H]1OC(=O)[C@@H](C)NC(=O)[C@H](CCCCC)OC(=O)[C@@H](C)NC(=O)[C@H](CCCCC)OC(=O)[C@@H](C)NC(=O)[C@H](CCCCC)OC(=O)[C@@H](C)NC1=O,,,10 µM,relative to: B-A over A-B,efflux ratio,0.482
CCCCn1cc(C(=O)O)c(=O)c2cc(F)c3[nH]nnc3c21,"cell growth, SRB",,72 h,,IC50,198 ± 44.1 µg/mL
COC(=O)NC(C(=O)NN(Cc1ccc(C=Cc2ccccc2)cc1)CC(O)(Cc1ccccc1)C(=O)NC1c2ccccc2CC1O)C(C)(C)C (centres unmarked),,,"pH 7.4, 1% BSA in receiver",,Papp A-to-B,8.3 ± 1.3 ×10⁻⁶ cm/s
CC1(C)CCN(Cc2ccc(C(=O)NC[C@]3(O)CCCN(c4cc(NCc5ccccc5)ncn4)C3)c(O)c2)CC1,,,"10 µM, 90 min, apical to basolateral",,mass recovery,82.4%
CNC(=O)C(NC(=O)C(O)(Cc1ccccc1)CN(Cc1ccc(Br)cc1)NC(=O)C(NC(=O)OC)C(C)(C)C)C(C)(C)C (centres unmarked),,,"pH 7.4, 1% BSA in receiver",,Papp B-to-A,70 ± 12.3 ×10⁻⁶ cm/s
Cc1ncc([N+](=O)[O-])n1CCOCc1nnc(SCC(=O)c2ccc(Cl)cc2)o1,"cell growth or viability, MTT",,"6 µM, 48 h",,viability,91.8%
COCCNC(=O)C(NC(=O)C(O)(Cc1ccccc1)CN(Cc1ccc(Br)cc1)NC(=O)C(NC(=O)OC)C(C)(C)C)C(C)C (centres unmarked),,,pH 7.4,relative to: B-to-A over A-to-B,efflux ratio,65
C=C(C)C(=O)Nc1ccc(-c2c(-c3ccc(Oc4nccc(C)n4)cc3)c3c(N)ncnc3n2C)cc1,,,,,Papp A-B,4.7 ×10⁻⁶ cm/s
C1=CCCC=CCC1.F[P-](F)(F)(F)(F)F.[Pt+][c]1ccccc1P(=Nc1ccccc1)(c1ccccc1)c1ccccc1,Caco-2 monolayer transport,HBSS with HEPES,"20 µM, 90 min",,Papp,27.1 ×10⁻⁶ cm/s
NC1=N[N+](=Cc2c3ccccc3cc3ccccc23)[Ga-3]23([S]1)([S]C(N)=N[N+]2=Cc1c2ccccc2cc2ccccc12)[S]C(N)=N[N+]3=Cc1c2ccccc2cc2ccccc12,,,72 h,relative to: IC50 CCD-18Co over Caco-2,selectivity ratio,12 and 11.8
COc1ccc(C(=O)CSc2nnc(COCCn3c([N+](=O)[O-])cnc3C)o2)cc1F,"cell growth or viability, MTT",,"6 µM, 48 h",,viability,109%
C#Cc1cccc(Nc2ncnc3cc(OC)c(OCCCN4CCOCC4)cc23)c1,,,"10 µM, 90 min, 37 °C",,Papp (B to A),22.91 ± 0.02 ×10⁻⁶ cm/s
COC(=O)NC(C(=O)NN(Cc1ccc(Br)cc1)CC(O)(Cc1ccccc1)C(=O)NC1c2ccccc2CC1O)C(C)(C)C (centres unmarked),,,"pH 7.4, 1% BSA in receiver",,Papp A-to-B,97.8 ± 12 ×10⁻⁶ cm/s
CC[C@H](C)[C@@H]1NC(=O)[C@H](CCCCN)NC(=O)[C@H]([C@@H](C)O)NC(=O)[C@H](Cc2ccccc2)NC(=O)[C@H]([C@@H](C)CC)NC(=O)[C@@H]2CCCN2C(=O)[C@@H]2CSSC[C@@H](C(=O)N[C@@H](CCCCN)C(=O)O)NC(=O)[C@@H]3CSSC[C@H](NC(=O)[C@H](CC(N)=O)NC(=O)[C@H](Cc4ccc(O)cc4)NC(=O)[C@H](Cc4c[nH]cn4)NC(=O)[C@@H](N)CC(=O)O)C(=O)N[C@@H](C(C)C)C(=O)N[C@@H](CO)C(=O)N[C@@H](CO)C(=O)NCC(=O)NCC(=O)N[C@@H](CCC(N)=O)C(=O)N[C@@H](CSSC[C@H](NC(=O)[C@H]([C@@H](C)O)NC(=O)CNC(=O)[C@H](CCC(N)=O)NC1=O)C(=O)N[C@@H](Cc1ccc(O)cc1)C(=O)N[C@@H](CCCNC(=N)N)C(=O)NCC(=O)N[C@@H](CCCCN)C(=O)N[C@@H](C)C(=O)N[C@@H](CCCCN)C(=O)N3)C(=O)N[C@@H](CC(C)C)C(=O)N[C@@H](Cc1ccc(O)cc1)C(=O)N[C@@H](CO)C(=O)N[C@@H](C)C(=O)N2,MTT,,"up to 25.0 µM, 48 and 72 h",,viability reduction,~25%
CCN(CC)CC#CCNc1ccnc2cc(Cl)ccc12,,,"10 µM, 90 min, pH 7.4",basolateral to apical,apparent permeability,11 ×10⁻⁶ cm/s
COC(=O)NC(C(=O)NN(Cc1ccc(Br)cc1)CC(O)(Cc1ccccc1)C(=O)NC1CCOC1)C(C)(C)C (centres unmarked),,,pH 7.4,relative to: B-to-A over A-to-B,efflux ratio,5.5
COC(=O)c1ccc2c(c1)NC(=O)/C2=C(\Nc1ccc2c(c1)CCN2C(=O)CN1CCOCC1)c1ccccc1,,,"20 µM, 120 min, 1% DMSO",,efflux ratio,1.15
COC(=O)NC(C(=O)NN(Cc1ccc(Br)cc1)CC(O)(Cc1ccccc1)C(=O)NCc1ccccc1)C(C)(C)C (centres unmarked),,,pH 7.4,relative to: B-to-A over A-to-B,efflux ratio,0.3
COc1cc(-c2cncc(-c3ccc(N4CCN(C)CC4)cc3)c2C)cc(OC)c1OC,,,"5 µM, 120 min, pH 7.4",relative to: B-A over A-B,efflux ratio,0.9
COC(=O)NC(C(=O)NN(Cc1ccc(-c2cc3ccccc3s2)cc1)CC(O)(Cc1ccccc1)C(=O)NC1c2ccccc2CC1O)C(C)(C)C (centres unmarked),,,"pH 7.4, 1% BSA in receiver",,Papp A-to-B,1.5 ± 0.1 ×10⁻⁶ cm/s
CCNCC#CCNc1ccnc2cc(Cl)ccc12,,,"10 µM, 90 min, pH 7.4",apical to basolateral,apparent permeability,14 ×10⁻⁶ cm/s

# Excerpt of the above:
Compound,assay,test system,setting,scale,endpoint,value
C[n+]1cc2cc3cc(ccc31)NC(=O)CCCCC(=O)Nc1ccc3c(c1)cc(c[n+]3C)C(=O)Nc1ccc3[nH]cc(c3c1)CCNC2=O,,,"pH 6.5, intrinsic permeability, with: transporter inhibitor cocktail",,Papp A-B,1.4 ×10⁻⁶ cm/s
CCCCC[C@@H]1OC(=O)[C@@H](C)NC(=O)[C@H](CCCCC)OC(=O)[C@@H](C)NC(=O)[C@H](CCCCC)OC(=O)[C@@H](C)NC(=O)[C@H](CCCCC)OC(=O)[C@@H](C)NC1=O,,,10 µM,relative to: B-A over A-B,efflux ratio,0.482
CCCCn1cc(C(=O)O)c(=O)c2cc(F)c3[nH]nnc3c21,"cell growth, SRB",,72 h,,IC50,198 ± 44.1 µg/mL
COC(=O)NC(C(=O)NN(Cc1ccc(C=Cc2ccccc2)cc1)CC(O)(Cc1ccccc1)C(=O)NC1c2ccccc2CC1O)C(C)(C)C (centres unmarked),,,"pH 7.4, 1% BSA in receiver",,Papp A-to-B,8.3 ± 1.3 ×10⁻⁶ cm/s
